# Published values from different studies.
# Compare with care: the assays were run in different laboratories. Several values in a cell are separate wells, animals, samples, runs or records. Numbers after ± are the reported error.
SMILES,tested on,assay,test system,conditions,scale,quantity,value
N#C[C@@H]1CCCN1C(=O)CNC(=O)c1ccnc2ccc(OCCCN3CCN(C(=O)CCc4ccc(O)c(CN5CCN6CC(=O)[O][Al-]([18F])([O]C(=O)C5)[O]c5ccc(CCC(=O)N7CCN(CCCOc8ccc9nccc(C(=O)NCC(=O)N%10CCC[C@H]%10C#N)c9c8)CC7)cc5C6)c4)CC3)cc12 (some centres unmarked),HT1080 cells expressing human FAP,,,"15 min, 37 °C",,internalized fraction,63.9 ± 2.5%
CC(C)(C)c1cc(-c2ccc3cccnc3n2)nc(-c2ccc3cccnc3n2)c1.COc1ccncc1.[Cl-].[Cl-].[Ru+2].c1ccc2cc3nc4c5cccnc5c5ncccc5c4nc3cc2c1,SK-MEL-28,,,"light 633 nm, oxygen 1%",relative to: dark EC50 over light EC50,phototherapeutic index,3
Cc1ncsc1-c1ccc(C(C)NC(=O)C2CC(O)CN2C(=O)C(NC(=O)CCCCCCCCCCN2CCCC(Nc3ncc(Cl)c(Nc4ccccc4S(=O)(=O)C(C)C)n3)C2)C(C)(C)C)cc1 (centres unmarked),22Rv1,"RNA-seq, measured: NKX3-1",,concentration not given,relative to: DMSO,log2 fold change,-1.55
CNS(=O)(=O)Nc1nccc(Cc2c(C)c3ccc(Oc4ncccc4F)cc3oc2=O)c1F,MOLM16,cell viability,,7 days,,IC50,> 1000 nM
O=C(CN1CCCCC1)Nc1ccc([C@H]2[C@@H](F)[C@@H](F)C[C@@H](F)[C@H]2F)cc1,,,cynomolgus liver microsomes,1 µM,,hepatic clearance,16 mL/min/kg
CC(=O)N[C@@H](Cc1ccc(I)cc1)C(=O)N[C@@H](CCC(=O)O)C(=O)N[C@H](C(=O)N[C@@H](CC(=O)O)C(=O)COC(=O)c1c(C)cccc1C)[C@@H](C)O,"THP-1 cells, LPS-primed","pyroptosis, LDH release",,"25 µM, LPS 1 µg/mL, 4 h, together with: nigericin 5 µM, 2 h",,cell lysis,33.8% and 73.6%
Cn1ncc2cc(-c3cncc(Cl)c3N3CCC4(CCNC4=O)CC3)ccc21,LS174T,"gene expression, microarray, measured: GSDMA mRNA",,"concentration not given, 24 h",relative to: untreated cells,log2 fold change,-2.74
O=C(CN1CCOCC1)Nc1ccc([C@H]2[C@@H](F)[C@@H](F)C[C@@H](F)[C@H]2F)cc1,,hepatocyte stability,cryopreserved human hepatocytes,1 µM,,hepatic clearance,6.2 mL/min/kg
CC(C)(C)c1ccc([C@H](O)C[C@H](CO)NC(=O)CCCCCOc2ccc3ccccc3c2)cc1,HeLa,"HPLC-MS-MS lipidomics, measured: C18 SM and ceramide",,"1 µM, 24 h",relative to: SM over Cer,SM/Cer ratio,"17 ,1"
CC1CN(C(=O)c2cn(C34CCCC(C)(CCC5C3CC5(C)C)C4)nn2)CCN1 (centres unmarked),HT-29,"cell growth or viability, CCK-8",,10 µM,,inhibition,66.3%
CCC(=CCc1c(O)cc2c(c1O)C(=O)CC(c1ccc(OC)c(O)c1)O2)CC (centres unmarked),HeLa,"cell growth or viability, MTT",,"6.25 µM, 48 h",,inhibition,17.2%
O=S(=O)(N[C@H]1CCO[C@@H](C2c3ccc(F)cc3CCc3cc(F)ccc32)C1)c1ccc(OC(F)(F)F)cc1,D425,CellTiter,,"concentration not given, 72 h",,cell proliferation,decreased
CC(=NN=c1sc(C(=O)c2ccccc2)nn1-c1ccccc1)c1ccc(S(=O)(=O)N2CCC(C)CC2)cc1,MCF7,flow cytometry,,"4.29 µM (IC50), 72 h",,cells in pre-G1 phase,14.3%
COc1cc(N2CCN(C(=O)C3CCCN3)CC2)ccc1Nc1ncc(Cl)c(Nc2ccccc2P(C)(C)=O)n1 (centres unmarked),NCI-H3122,CCK-8,,"5 nM, 48 h",,viability,80%
C[N+](C)(CCOCCOCCOCCNC(=S)Nc1ccc(C[C@H]2CN(CC(=O)[O-])CCN(CC(=O)[O-])CCN2CC(=O)[O-])cc1)C[c-]1cccc1.[64Cu+2].[Fe+2].c1cc[cH-]c1,BxPC-3,,,"6 h, 37 °C",,radioligand remaining in medium,99.7%
O=C(C[Se]C(=O)c1cc2ccccc2s1)Nc1cccc(C(F)(F)F)c1,NCI60 leukemia subpanel,cell growth,,"10 µM, 48 h, one-dose",,mean growth percent,-81%
CN1CCCNC(=O)c2cccc(c2)C(=O)NCCCN(C)CCCNc2cccc3c2C(=O)c2cccc(c2C3=O)NCCC1,SAS,"RNA-Seq, measured: ANKFY1 mRNA",,"1 µM, 6 h",relative to: untreated cells,log2 fold change,-0.992
Cc1ccc2oc(=O)cc(Cn3ccnc3)c2c1,COS-7 (untransfected),,,"500 µM, unit not given",relative to: 3 µM ionomycin,calcium mobilisation signal,3.65 ± 3.32
CCC(=CCc1c(O)cc2c(c1O)C(=O)CC(c1cc(OC)ccc1O)O2)CC (centres unmarked),HeLa,"cell growth or viability, MTT",,"100 µM, 48 h",,inhibition,34.8%
COc1ccc(CNC[C@](O)(COCc2ccccc2)[C@@H]2CC[C@@H](C)C[C@H]2OCc2ccccc2)cc1,A2780,"cell growth or viability, MTT",,"10 µM, 72 h",,inhibition,92.8%

# Repeated from above:
SMILES,tested on,assay,test system,conditions,scale,quantity,value
COc1cc(N2CCN(C(=O)C3CCCN3)CC2)ccc1Nc1ncc(Cl)c(Nc2ccccc2P(C)(C)=O)n1 (centres unmarked),NCI-H3122,CCK-8,,"5 nM, 48 h",,viability,80%
CN1CCCNC(=O)c2cccc(c2)C(=O)NCCCN(C)CCCNc2cccc3c2C(=O)c2cccc(c2C3=O)NCCC1,SAS,"RNA-Seq, measured: ANKFY1 mRNA",,"1 µM, 6 h",relative to: untreated cells,log2 fold change,-0.992
